Assay results of several laboratories.
Numbered parts are unrelated; each lists some results of a single study.

Study 1
Target: Replicase polyprotein 1ab, polymerase (rep, Severe acute respiratory syndrome coronavirus 2, UniProt P0DTD1)
Observed: enzyme activity
Mode: inhibitor
Tested at: 20 µM
The inhibition of `O=C(NO)c1cnc(N2CCN(S(=O)(=O)c3ccc4ccccc4c3)CC2)nc1` is reported as 1.65%.
`CC(=O)[C@H]1CC[C@H]2[C@@H]3CC=C4C[C@@H](OC(=O)CCC(=O)O)CC[C@]4(C)[C@H]3CC[C@]12C` has an inhibition of -2.02%.
The inhibition of `CC(C)N1CCN(c2ccc(OC[C@H]3CO[C@](Cn4cncn4)(c4ccc(Cl)cc4Cl)O3)cc2)CC1` (racemic) is reported as -8.02%.
With `O=c1[nH]c(=O)n([C@H]2C[C@H](O)[C@@H](CO)O2)cc1/C=C/Br` the inhibition was -3.71%.
For `CCCCOc1nc(N)c2c(n1)N(Cc1cccc(CN3CCCC3)c1)CC(=O)N2`, the inhibition was -2.7%.
The inhibition of `CN1CCC(=C2c3ccccc3Sc3ccccc32)CC1` is reported as 13.8%.
The inhibition of `COc1cccc(OC)c1OCCNCC1COc2ccccc2O1` (stereo not drawn) is reported as -12.6%.
The inhibition of `C[C@@H]1O[C@@H](O[C@H]2[C@H](Oc3cc(O)c(C(=O)CCc4ccc(O)cc4)c(O)c3)O[C@H](CO)[C@@H](O)[C@@H]2O)[C@H](O)[C@H](O)[C@H]1O` is reported as 1.72%.
The inhibition of `C[C@H]1O[C@@H](O[C@H]2[C@@H](O)C[C@H](O[C@H]3[C@@H](O)C[C@H](O[C@H]4CC[C@@]5(C)[C@H](CC[C@@H]6[C@@H]5C[C@@H](O)[C@]5(C)[C@@H](C7=CC(=O)OC7)CC[C@]65O)C4)O[C@@H]3C)O[C@@H]2C)C[C@H](O)[C@@H]1O` is reported as 15.1%.
For `NC[C@H]1O[C@H](O[C@H]2[C@H](O)[C@@H](O[C@H]3O[C@H](CO)[C@@H](O)[C@H](N)[C@H]3O)[C@H](N)C[C@@H]2N)[C@H](O)[C@@H](O)[C@@H]1O`, the inhibition was 15.8%.

Study 2
Target: RING finger protein unkempt homolog, zinc fingers 1-6, GST-SBP tag (UNK, Homo sapiens, UniProt Q9C0B0, residues 30-357)
Method: RNA Bind-n-Seq
Form: RNA
Medium: in vitro
Tested at: not given
Setting: RNA with constant flanks, human-mouse chimeric sites, ends assumed
Reference: input RNA pool
Reading: higher = stronger binding
Target sequence (chain): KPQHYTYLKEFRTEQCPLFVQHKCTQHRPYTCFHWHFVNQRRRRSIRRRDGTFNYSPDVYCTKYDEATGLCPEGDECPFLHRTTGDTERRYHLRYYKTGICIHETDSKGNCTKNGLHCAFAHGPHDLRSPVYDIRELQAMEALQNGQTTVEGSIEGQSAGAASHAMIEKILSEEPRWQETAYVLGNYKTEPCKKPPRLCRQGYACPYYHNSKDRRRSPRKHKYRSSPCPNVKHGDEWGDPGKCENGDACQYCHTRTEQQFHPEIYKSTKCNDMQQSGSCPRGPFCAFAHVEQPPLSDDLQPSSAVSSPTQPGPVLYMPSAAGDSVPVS
For `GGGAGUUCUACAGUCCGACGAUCAGAAUCUUGGGACUGUUUUGCUUGAUUGGUCAUUGAUAGCUUAACAAACAUGGAGAUAAGAUUAGAAGUUUUGACAUCAACAGGUAUUAAGCAGAAAAAACCAUGGCCACGUGUCUCCUGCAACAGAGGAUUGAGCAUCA`, the bound/input enrichment was 0.297 ratio.
`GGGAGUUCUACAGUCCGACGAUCGUUGCCAGCUUCCGGUUCCGUUGGGCUCGGUUCUCUCCUGAGCUACGUGUCUCUACGUUUUAGGUGUGCCAUCCAACAAACAUGGAUCAGGUAAUGCUGCAGUUUGUGCCCAGCCGGCAGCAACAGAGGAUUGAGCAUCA` gave a bound/input enrichment of 0.217 ratio.
With `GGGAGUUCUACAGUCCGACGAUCUCAUUUUUCUCUUUUCUUUCUUUCCUUUAGGAAAAGCCUAAAGAUUAGGUUGUAAGAAAAACAGAAGCCAUGUUUCGAAGACCUGUGUUACAGGUACUUCGUCAGUUUGUAAGACAUGAGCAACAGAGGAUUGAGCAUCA` the bound/input enrichment was 0.187 ratio.
For `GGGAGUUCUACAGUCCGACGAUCUCGGAUGCUGUGCUGGGUCACUUUUCAUAUCCAGAUCCUUCACAGUGGACAGAUGAAGAACUGGGAAUCCCUCCUGAUGACGAGGACUGACACUGUAGACUCAGCCUACGAGUAGGAGCACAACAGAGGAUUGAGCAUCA`, the bound/input enrichment was 0.332 ratio.
With `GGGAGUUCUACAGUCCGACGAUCCCCUCCCGGGCCACCCAACCCCUCCCGGCUCCCCGCCGAGAUCCAGGUUUCUUCUUAUUUCAUAGCAAAUAAGAAAAAUGUUCUACGCACAUUUUGUCCUCAGUAAAAGAGGGCCUCUGGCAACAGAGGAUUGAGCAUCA` the bound/input enrichment was 0.667 ratio.
For `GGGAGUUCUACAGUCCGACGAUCGCUCCUCCCCGCUCUGCCCCUGCCUGCCACUGGGCUGGGACCAGAAUCCAGCUUUCUUUUAAAACUCUAUAUUUUUUUGUAUCCCGUGACAUUUCAUUUUUUUUAAAUAGUGUAUUUUUUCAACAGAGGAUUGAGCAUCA`, the bound/input enrichment was 14.6 ratio.
For `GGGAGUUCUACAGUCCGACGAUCUGUAGUUUCUUGAUUUAUCAUUUUUCUCUUUUCUUUCAGAUCGUCAGGAAAAGCCUAAAGAUUAGGUUGUAAGAAAAGAAAAUAGAAUGUUUCGAAGACCUGUGUUACAGGUAUUUCGUCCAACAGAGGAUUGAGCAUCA`, the bound/input enrichment was 0.585 ratio.
`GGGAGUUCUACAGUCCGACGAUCAGUGUGCAGGAAUUCAUGACCUUUACAAGUCAACUGAUUGUGGAACGCUCGGGGAAAGGCACUAGAGCUUCUGUCAAAGAACAAGAGUAUCUGUGCCAUGUCUACGUCCGGAGCGACAGUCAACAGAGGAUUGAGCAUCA` gave a bound/input enrichment of 0.072 ratio.

Study 3
Cell line: HEK-293T
Observed: pseudovirus infection
Method: FDA-approved drug library screen
Organism: VSV pseudotyped with SARS-CoV-2 spike
Tested at: 10 µM
Time: 16 h
Reference: vehicle-treated
For `CC1=C(CC(=O)O)c2cc(F)ccc2/C1=C\c1ccc([S+](C)[O-])cc1` (stereo not drawn), the GFP-positive cells was 96.6%.
For `CC(NCCc1ccc(O)cc1)C(O)c1ccc(O)cc1` (stereo not drawn), the GFP-positive cells was 90.9%.
`Cc1noc(NS(=O)(=O)c2ccc(N)cc2)c1C` has a GFP-positive cells of 118%.
The GFP-positive cells of `CC(C)[C@H](N)C(=O)OCC(CO)OCn1cnc2c(=O)nc(N)[nH]c21` (stereo partly drawn) is reported as 61%.
The GFP-positive cells of `CCCSc1ccc2nc(NC(=O)OC)[nH]c2c1` is reported as 22.3%.
`COc1cc([C@@H]2c3cc4c(cc3[C@@H](O[C@@H]3O[C@@H]5CO[C@@H](c6cccs6)O[C@H]5[C@H](O)[C@H]3O)[C@H]3COC(=O)[C@H]23)OCO4)cc(OC)c1O` has a GFP-positive cells of 64.3%.

Study 4
Target: Replicase polyprotein 1ab, main protease (rep, Severe acute respiratory syndrome coronavirus 2, UniProt P0DTD1)
Observed: enzyme activity
Mode: inhibitor
Tested at: 20 µM
Setting: primary screen
The inhibition of `O=C1c2c(O)cc(O)cc2O[C@H](c2cc(O)c(O)c(O)c2)[C@H]1O` is reported as 99.7%.
With `CC(Cc1ccc(O)c(O)c1)(NN)C(=O)O` (stereo not drawn) the inhibition was 90.7%.
`COc1cc(Br)c(Nc2nc(-c3c(C)nc4ncccn34)cs2)c(Br)c1` has an inhibition of 28.3%.

Some of these lines once more (study 2):
For `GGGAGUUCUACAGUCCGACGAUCGCUCCUCCCCGCUCUGCCCCUGCCUGCCACUGGGCUGGGACCAGAAUCCAGCUUUCUUUUAAAACUCUAUAUUUUUUUGUAUCCCGUGACAUUUCAUUUUUUUUAAAUAGUGUAUUUUUUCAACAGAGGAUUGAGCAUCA`, the bound/input enrichment was 14.6 ratio.
For `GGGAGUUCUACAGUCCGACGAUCUGUAGUUUCUUGAUUUAUCAUUUUUCUCUUUUCUUUCAGAUCGUCAGGAAAAGCCUAAAGAUUAGGUUGUAAGAAAAGAAAAUAGAAUGUUUCGAAGACCUGUGUUACAGGUAUUUCGUCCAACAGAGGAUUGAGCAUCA`, the bound/input enrichment was 0.585 ratio.
`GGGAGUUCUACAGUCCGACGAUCAGUGUGCAGGAAUUCAUGACCUUUACAAGUCAACUGAUUGUGGAACGCUCGGGGAAAGGCACUAGAGCUUCUGUCAAAGAACAAGAGUAUCUGUGCCAUGUCUACGUCCGGAGCGACAGUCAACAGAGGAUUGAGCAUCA` gave a bound/input enrichment of 0.072 ratio.
